Results from different studies.
Numbered parts are unrelated; each lists some results of a single study.
UniProt P42336, sequence (whole entry, unmodified, looked up): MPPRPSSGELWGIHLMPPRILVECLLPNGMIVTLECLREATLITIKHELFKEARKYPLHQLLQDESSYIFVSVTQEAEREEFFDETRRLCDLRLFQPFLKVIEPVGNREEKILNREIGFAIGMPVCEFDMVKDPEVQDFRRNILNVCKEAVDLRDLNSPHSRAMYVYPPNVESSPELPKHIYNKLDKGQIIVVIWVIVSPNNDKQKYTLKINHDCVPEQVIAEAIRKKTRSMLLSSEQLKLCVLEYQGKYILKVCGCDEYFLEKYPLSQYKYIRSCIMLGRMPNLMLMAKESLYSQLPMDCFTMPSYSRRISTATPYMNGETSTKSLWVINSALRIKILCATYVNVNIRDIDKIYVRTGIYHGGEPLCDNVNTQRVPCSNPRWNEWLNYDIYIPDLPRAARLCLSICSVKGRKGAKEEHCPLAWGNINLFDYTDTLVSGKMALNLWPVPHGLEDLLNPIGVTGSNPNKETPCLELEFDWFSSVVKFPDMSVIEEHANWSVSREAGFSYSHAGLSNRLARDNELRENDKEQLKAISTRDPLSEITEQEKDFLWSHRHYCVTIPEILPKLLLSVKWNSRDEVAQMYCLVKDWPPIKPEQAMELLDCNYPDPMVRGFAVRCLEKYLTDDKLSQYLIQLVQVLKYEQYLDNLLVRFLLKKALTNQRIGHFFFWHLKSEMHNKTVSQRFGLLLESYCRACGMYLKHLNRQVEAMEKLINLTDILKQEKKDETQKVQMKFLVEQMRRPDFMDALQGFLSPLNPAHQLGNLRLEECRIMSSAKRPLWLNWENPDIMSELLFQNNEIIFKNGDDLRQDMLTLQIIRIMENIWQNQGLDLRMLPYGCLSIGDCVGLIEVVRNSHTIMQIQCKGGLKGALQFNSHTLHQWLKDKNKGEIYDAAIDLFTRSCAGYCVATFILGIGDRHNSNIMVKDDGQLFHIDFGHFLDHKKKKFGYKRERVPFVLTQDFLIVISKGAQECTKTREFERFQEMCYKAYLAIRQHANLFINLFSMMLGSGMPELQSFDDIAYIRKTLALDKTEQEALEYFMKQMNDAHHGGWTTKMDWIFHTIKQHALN
UniProt Q5VT25, sequence (whole entry, looked up): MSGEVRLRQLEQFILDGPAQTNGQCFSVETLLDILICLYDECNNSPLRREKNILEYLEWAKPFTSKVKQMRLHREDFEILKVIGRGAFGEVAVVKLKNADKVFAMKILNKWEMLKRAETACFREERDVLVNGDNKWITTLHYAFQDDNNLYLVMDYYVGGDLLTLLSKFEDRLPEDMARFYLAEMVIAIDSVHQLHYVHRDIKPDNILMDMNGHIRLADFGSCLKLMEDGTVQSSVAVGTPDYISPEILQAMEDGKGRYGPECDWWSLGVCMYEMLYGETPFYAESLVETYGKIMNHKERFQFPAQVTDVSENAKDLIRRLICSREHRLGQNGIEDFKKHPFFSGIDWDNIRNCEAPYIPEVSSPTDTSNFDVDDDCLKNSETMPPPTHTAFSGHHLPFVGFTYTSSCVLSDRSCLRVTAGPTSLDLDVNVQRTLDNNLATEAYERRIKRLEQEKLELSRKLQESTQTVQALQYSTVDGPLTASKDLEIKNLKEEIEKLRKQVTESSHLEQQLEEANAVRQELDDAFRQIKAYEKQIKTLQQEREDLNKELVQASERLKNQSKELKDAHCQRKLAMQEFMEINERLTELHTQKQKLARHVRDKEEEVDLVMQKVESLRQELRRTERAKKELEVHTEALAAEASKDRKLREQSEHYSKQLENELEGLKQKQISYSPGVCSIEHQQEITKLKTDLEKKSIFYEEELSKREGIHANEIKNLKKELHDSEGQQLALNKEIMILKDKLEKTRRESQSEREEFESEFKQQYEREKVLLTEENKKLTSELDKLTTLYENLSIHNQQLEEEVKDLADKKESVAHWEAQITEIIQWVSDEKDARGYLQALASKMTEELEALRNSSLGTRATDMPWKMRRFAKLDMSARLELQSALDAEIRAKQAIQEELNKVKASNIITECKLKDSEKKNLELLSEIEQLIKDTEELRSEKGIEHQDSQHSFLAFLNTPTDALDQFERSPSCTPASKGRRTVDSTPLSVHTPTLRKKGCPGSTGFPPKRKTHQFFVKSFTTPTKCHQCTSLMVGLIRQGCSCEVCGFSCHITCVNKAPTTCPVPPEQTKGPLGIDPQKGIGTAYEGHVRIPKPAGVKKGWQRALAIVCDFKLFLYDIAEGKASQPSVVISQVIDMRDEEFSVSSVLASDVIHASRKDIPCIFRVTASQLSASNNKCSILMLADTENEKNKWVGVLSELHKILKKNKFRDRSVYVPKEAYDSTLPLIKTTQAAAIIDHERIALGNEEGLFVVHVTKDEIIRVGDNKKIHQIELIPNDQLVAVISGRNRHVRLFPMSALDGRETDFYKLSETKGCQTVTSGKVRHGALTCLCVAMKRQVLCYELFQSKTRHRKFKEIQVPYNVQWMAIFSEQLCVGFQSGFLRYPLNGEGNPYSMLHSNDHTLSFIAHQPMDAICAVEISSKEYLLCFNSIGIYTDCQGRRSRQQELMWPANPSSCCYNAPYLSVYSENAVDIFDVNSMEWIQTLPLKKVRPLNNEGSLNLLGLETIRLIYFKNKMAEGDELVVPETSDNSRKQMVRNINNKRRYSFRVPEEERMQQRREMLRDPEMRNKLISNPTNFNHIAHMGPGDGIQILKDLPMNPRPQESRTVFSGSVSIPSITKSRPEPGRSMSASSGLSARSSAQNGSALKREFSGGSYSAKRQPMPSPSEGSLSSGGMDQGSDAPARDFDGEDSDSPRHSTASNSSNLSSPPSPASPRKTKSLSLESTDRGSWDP
UniProt P15056, sequence (whole entry, unmodified, looked up): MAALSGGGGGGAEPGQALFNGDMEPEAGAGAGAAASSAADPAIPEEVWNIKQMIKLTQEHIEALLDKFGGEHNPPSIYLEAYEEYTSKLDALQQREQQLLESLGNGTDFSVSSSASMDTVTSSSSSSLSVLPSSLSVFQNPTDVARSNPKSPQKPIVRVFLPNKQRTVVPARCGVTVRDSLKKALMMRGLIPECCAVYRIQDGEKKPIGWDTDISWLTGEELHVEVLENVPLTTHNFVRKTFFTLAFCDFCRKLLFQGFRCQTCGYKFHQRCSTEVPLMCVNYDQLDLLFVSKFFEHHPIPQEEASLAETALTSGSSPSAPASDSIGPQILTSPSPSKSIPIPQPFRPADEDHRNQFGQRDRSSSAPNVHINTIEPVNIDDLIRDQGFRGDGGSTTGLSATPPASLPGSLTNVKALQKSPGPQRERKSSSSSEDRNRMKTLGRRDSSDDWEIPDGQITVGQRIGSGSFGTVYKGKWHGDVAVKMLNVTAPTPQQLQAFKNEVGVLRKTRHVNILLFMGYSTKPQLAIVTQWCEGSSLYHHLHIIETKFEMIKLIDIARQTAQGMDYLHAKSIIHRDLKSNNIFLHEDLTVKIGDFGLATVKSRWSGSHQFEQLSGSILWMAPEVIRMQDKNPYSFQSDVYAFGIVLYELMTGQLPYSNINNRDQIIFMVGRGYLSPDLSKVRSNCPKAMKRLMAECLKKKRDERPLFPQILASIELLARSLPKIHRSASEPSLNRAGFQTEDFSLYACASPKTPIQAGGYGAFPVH
UniProt P50613, sequence (whole entry, looked up): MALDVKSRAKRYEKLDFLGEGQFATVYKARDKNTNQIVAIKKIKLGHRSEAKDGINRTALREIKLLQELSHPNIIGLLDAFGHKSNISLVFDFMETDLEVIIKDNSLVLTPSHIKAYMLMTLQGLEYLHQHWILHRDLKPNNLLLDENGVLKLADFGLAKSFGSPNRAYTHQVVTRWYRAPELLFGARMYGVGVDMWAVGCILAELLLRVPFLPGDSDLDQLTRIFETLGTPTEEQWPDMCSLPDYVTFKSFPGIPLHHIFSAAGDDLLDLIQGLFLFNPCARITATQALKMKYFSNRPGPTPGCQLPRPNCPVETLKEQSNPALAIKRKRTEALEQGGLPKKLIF

Series 1 — technique: protein-binding microarray; form: hairpin DNA; sample: in vitro; concentration: not given; reference: not given; reading: higher = stronger binding
Target: Transcription factor SOX-2, HMG box (SOX2, Homo sapiens, UniProt P48431, residues 37-118)
UniProt P48431, sequence (37-118, looked up): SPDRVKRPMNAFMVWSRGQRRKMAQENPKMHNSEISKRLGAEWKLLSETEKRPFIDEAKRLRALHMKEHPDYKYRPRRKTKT
Notes: whole hairpin DNA, median over replicate spots
Constant ends, left off below: GCAGGCCCA … TGGGCCTGCACACTCTTTCCCTACACGAC
With `CACCGGGCCTCCTGGCCCGGTG` the median fluorescence was 2520 a.u.
The median fluorescence of `CAACGGGCCTCCTGGCCCGTTG (5mC at 27)` is reported as 2410 a.u.
`CCATGGGCCTCCTGGCCCATGG` gave a median fluorescence of 2460 a.u.
`CGATGGGCCTCCTGGCCCATCG (5mC at 30)` gave a median fluorescence of 2370 a.u.
For `TAATGGGCCTCCTGGCCCATTA`, the median fluorescence was 3060 a.u.
With `CACGGGGCCTCCTGGCCCCGTG (5mC at 12)` the median fluorescence was 2300 a.u.
`CCTTGGGCCTCCTGGCCCAAGG (5mC at 11)` gave a median fluorescence of 2350 a.u.
The median fluorescence of `CGATGGGCCTCCTGGCCCATCG (5mC at 10 30)` is reported as 2460 a.u.

Series 2 — technique: RNA Bind-n-Seq; form: RNA; sample: in vitro; concentration: not given; reference: input RNA pool; reading: higher = stronger binding
Target: RING finger protein unkempt homolog, zinc fingers 1-6, GST-SBP tag (UNK, Homo sapiens, UniProt Q9C0B0, residues 30-357)
UniProt Q9C0B0, sequence (30-357, looked up): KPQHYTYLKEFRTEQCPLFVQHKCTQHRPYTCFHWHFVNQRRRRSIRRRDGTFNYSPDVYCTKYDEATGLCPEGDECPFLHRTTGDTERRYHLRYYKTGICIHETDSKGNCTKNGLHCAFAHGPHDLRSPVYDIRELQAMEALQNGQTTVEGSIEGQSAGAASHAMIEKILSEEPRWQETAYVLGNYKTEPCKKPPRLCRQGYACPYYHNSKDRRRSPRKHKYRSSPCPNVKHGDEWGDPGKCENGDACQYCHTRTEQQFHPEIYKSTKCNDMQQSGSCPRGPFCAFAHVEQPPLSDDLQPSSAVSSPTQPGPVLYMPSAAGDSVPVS
Notes: RNA with constant flanks, human-mouse chimeric sites, ends assumed
For `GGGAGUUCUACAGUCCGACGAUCGUAGCUGGGACUACAGAAAUGCUGGUAAUUUCAGUCAGUGAGUCGUGACUUCUGAUGUCCCAGCAAAUAAUGCCACAGUUGACUGCUGAGAAGAUACUUCUGAGGACCCACGUCUAAGGUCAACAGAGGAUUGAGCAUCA`, the bound/input enrichment was 0.0735 ratio.
With `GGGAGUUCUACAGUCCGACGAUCGUACUGCAGCAGCAGGGAAAACUGCAGGAAGCUCUGAUGCACUAUAAAGAAGCCAUACGAAUCAGUCCUACCUUUGCUGAUGCCUACUCUAAUAUGGGAAACACUCUAAAGGAGAUGCAGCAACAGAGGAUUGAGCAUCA` the bound/input enrichment was 0.134 ratio.
With `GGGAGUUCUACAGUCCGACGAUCUACUCAACUUUCUUGCCACAUUUUGAAUUCCAAGAUGUUAUUCCUCCAGAUGACUUCCUAACGAGUGAUGAAGAGCAAGAUUUGGUUUUAUUUGGAACUAUGAGAGGUCAUGUGGUUGGACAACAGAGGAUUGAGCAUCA` the bound/input enrichment was 0.15 ratio.
With `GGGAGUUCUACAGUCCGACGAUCAGGAGGAGGUUAAAGGGUGAGAGUGGGAUGGAGGAUUGUGUCAUGGCUCUGGAGACAUUGUUUAGUGUCCUGCUUUCUCUGUGCAGACUGAUGGCCCCUUACACGCCCUUUCUGACUGAGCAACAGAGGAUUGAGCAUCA` the bound/input enrichment was 0.162 ratio.
With `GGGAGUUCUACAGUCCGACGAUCCGAGACAAGACAUCCAGGAACAUGCGAGGGUCACGGAUGAAUGGGUUGCCUAGCCCCACUCACAGCGCCCACUGUAGCUUCUACCGAACCAGAACCUUGCAGGCACUGAGUAAUGAGAAGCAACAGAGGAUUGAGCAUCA` the bound/input enrichment was 0.0723 ratio.
The bound/input enrichment of `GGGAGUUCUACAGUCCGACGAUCGGCUGCUGGUGACUGUCCUGGAGUGGCCGUGUCACCGGCCGGAGCGCGGCCAGACUAAUUUUAGAAAAUGCCAAGUAGGAAAUUUGCUGAGGGUGAAGUGGUCAGAGGCCGAUGGCCUGGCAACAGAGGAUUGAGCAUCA` is reported as 3.9 ratio.
`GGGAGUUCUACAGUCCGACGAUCAAAGAACUACUGAGGCAAGGCAGCAAAUUUAGGAGAGACAUUUCAACAAUAUUGAUAGAGUUAGGAUUCCAAAUUAAAAAAAAAACUAAGACAUUAUAUAUCAACAAAGCCAAUGUGUGGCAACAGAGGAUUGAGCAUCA` gave a bound/input enrichment of 22.3 ratio.
With `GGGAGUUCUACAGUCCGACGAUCAACGUGGAGUUGAGUUCCUUGGCCCGGCUUCCCAGCUUGAAUAAACUCCGGAAGUUGGAGCUUAGUGACAAUAUAAUUUCUGGAGGCUUGGAAGUCCUGGCAGAGAAAUGUCCAAAUCUUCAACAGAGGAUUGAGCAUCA` the bound/input enrichment was 0.216 ratio.

Series 3 — effect on: enzyme activity; mode: inhibitor; concentration: 0.5 µM; reference: control
Target: Serine/threonine-protein kinase PAK 2 (PAK2, Homo sapiens, UniProt Q13177)
UniProt Q13177, sequence (whole entry, looked up): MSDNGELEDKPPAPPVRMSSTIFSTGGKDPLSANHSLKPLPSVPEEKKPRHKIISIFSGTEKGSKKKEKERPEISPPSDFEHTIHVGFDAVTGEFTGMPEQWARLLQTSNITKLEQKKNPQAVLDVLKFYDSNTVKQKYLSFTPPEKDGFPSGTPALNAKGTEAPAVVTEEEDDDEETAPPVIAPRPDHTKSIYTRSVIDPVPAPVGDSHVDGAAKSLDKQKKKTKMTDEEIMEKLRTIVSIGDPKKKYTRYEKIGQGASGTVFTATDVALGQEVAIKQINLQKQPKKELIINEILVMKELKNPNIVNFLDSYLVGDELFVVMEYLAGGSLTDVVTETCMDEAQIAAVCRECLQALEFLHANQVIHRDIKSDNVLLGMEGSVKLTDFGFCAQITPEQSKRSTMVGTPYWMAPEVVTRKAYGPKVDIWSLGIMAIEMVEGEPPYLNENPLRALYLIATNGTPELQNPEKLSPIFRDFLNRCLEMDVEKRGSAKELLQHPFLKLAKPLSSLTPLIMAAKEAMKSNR
For `NCCNc1ncc(C(N)=O)c(Nc2cccc(C(F)(F)F)c2)n1`, the remaining activity was 58.9%.
The remaining activity of `Cn1sc(=O)n(Cc2ccccc2)c1=O` is reported as 104%.
For `Cc1cccc(-c2[nH]c(C(C)(C)C)nc2-c2ccc3c(c2)OCO3)n1`, the remaining activity was 72.4%.

Series 4 — effect on: cell-free assay; technique: competition with immobilised ligand; concentration: 1 µM
SMILES: CNC(=O)Nc1ccc2c(c1)CC[C@@]21OC(=O)N(CC(=O)N(Cc2ccc(F)cc2)[C@@H](C)C(F)(F)F)C1=O
For Cyclin-dependent kinase 7 (CDK7, Homo sapiens, UniProt P50613): remaining binding read 78%.
For Mitogen-activated protein kinase kinase kinase kinase 1 (MAP4K1, Homo sapiens, UniProt Q92918): remaining binding read 99%.
For SRSF protein kinase 3 (SRPK3, Homo sapiens, UniProt Q9UPE1): remaining binding read 95%.
It gave 100% for remaining binding (cAMP-dependent protein kinase catalytic subunit beta (PRKACB, Homo sapiens, UniProt P22694)).
The remaining binding was 80% (Phosphatidylinositol 4,5-bisphosphate 3-kinase catalytic subunit alpha isoform (PIK3CA, Homo sapiens, UniProt P42336, E545K)).
It gave 100% for remaining binding (Receptor-type tyrosine-protein kinase FLT3 (FLT3, Homo sapiens, UniProt P36888, N841I)).
It gave 100% for remaining binding (Serine/threonine-protein kinase B-raf (BRAF, Homo sapiens, UniProt P15056, V600E)).
For Tyrosine-protein kinase JAK1, JH2 (JAK1, Homo sapiens, UniProt P23458): remaining binding read 100%.
It gave 74% for remaining binding (Membrane-associated tyrosine- and threonine-specific cdc2-inhibitory kinase (PKMYT1, Homo sapiens, UniProt Q99640)).
For Serine/threonine-protein kinase 24 (STK24, Homo sapiens, UniProt Q9Y6E0): remaining binding read 90%.
The remaining binding was 63% (Casein kinase II subunit alpha (CSNK2A1, Homo sapiens, UniProt P68400)).
The remaining binding was 100% (Serine/threonine-protein kinase MRCK alpha (CDC42BPA, Homo sapiens, UniProt Q5VT25)).
The remaining binding was 95% (Phosphatidylinositol 4,5-bisphosphate 3-kinase catalytic subunit alpha isoform (PIK3CA, Homo sapiens, UniProt P42336, H1047L)).
It gave 89% for remaining binding (Vascular endothelial growth factor receptor 3 (FLT4, Homo sapiens, UniProt P35916)).

Some of these lines once more (series 4):
It gave 100% for remaining binding (Serine/threonine-protein kinase B-raf (BRAF, Homo sapiens, UniProt P15056, V600E)).
For Tyrosine-protein kinase JAK1, JH2 (JAK1, Homo sapiens, UniProt P23458): remaining binding read 100%.
It gave 74% for remaining binding (Membrane-associated tyrosine- and threonine-specific cdc2-inhibitory kinase (PKMYT1, Homo sapiens, UniProt Q99640)).
For Serine/threonine-protein kinase 24 (STK24, Homo sapiens, UniProt Q9Y6E0): remaining binding read 90%.
The remaining binding was 63% (Casein kinase II subunit alpha (CSNK2A1, Homo sapiens, UniProt P68400)).
